Experimental data gathered from unrelated publications.
Values joined by “and” are separate records of one study, mostly repeats; a detail may differ. Numbers after ± are the reported error.

Cc1ncsc1-c1ccc(C(C)NC(=O)C2CC(O)CN2C(=O)C(NC(=O)CCCCCCCCCCN2CCCC(Nc3ncc(Cl)c(Nc4ccccc4S(=O)(=O)C(C)C)n3)C2)C(C)(C)C)cc1 (stereo not shown) — log2 fold change (22Rv1; RNA-seq, refers to: WDR5B mRNA; concentration not given; relative to: DMSO): -1.29
CNS(=O)(=O)Nc1nccc(Cc2c(C)c3ccc(Oc4ncccc4F)cc3oc2=O)c1F — IC50 (OS-RC-2; cell viability; 7 days): 945 nM
CCCC[C@@H](CSS(=O)(=O)O)NCCC — body weight (Schistosoma mansoni; perfusion day 62; infected Swiss Webster mice; 100 mg/kg): 31.2 g and 34.7 g and 32.2 g
CC(C)OCCOCc1ccc(OCC(O)CN(N=O)C(C)C)cc1 (stereo not shown) — revertant fold increase (Escherichia coli; Ames test; WP2 uvrA; 5000 µg/plate, 30 % rat S9; relative to: solvent control): 0.8 fold
CCN(CC)CC#CCNc1ccnc2cc(Cl)ccc12 — revertants (Salmonella typhimurium; mini-Ames test; TA1535; 125.0 µg/well, without S9): 2 revertants/well and 0 revertants/well
O=C1NC2(CC2)COc2ncc(F)cc2[C@H]2COCCN2c2ccn3ncc1c3n2 — revertant colonies (Salmonella typhimurium; Ames test; TA100; 1500 µg/plate, 48 h, added: without S9): 81 ± 8 revertants/plate
CCCCCCC(CSS(=O)(=O)O)NCC(C)C (stereo not shown) — body weight (Schistosoma mansoni; perfusion day 62; infected Swiss Webster mice; 100 mg/kg): 29.8 g and 31.2 g and 34 g
C=C(NC(=O)c1csc(-c2nc3c(cc2O)-c2nc(cs2)C(=O)NC(C(C)O)C(=O)NC(=C(C)OC)c2nc(cs2)C(=O)NC2c4nc(cs4)C(=O)NC(COC(=O)c4c5c6c(cccc6n4O)COC(=O)C(OC4CC(C)(O)C(N(C)C)C(C)O4)C2OC5)c2nc-3cs2)n1)C(N)=O (stereo not shown) — AUC(0-t) (male cynomolgus monkey, plasma; intravenous, 9 mg/kg, single dose, infusion): 47400 ng·h/mL
CCCCC(CSS(=O)(=O)O)NCC(C)C (stereo not shown) — body weight (Schistosoma mansoni; perfusion day 35; infected Swiss Webster mice; 100 mg/kg): 27.3 g and 25.5 g and 22.8 g
COC(=O)Nc1nc2cc(C(O)c3ccc(F)cc3)ccc2[nH]1 (stereo not shown) — revertants (Salmonella typhimurium; Ames preincubation test; TA98; 109.4 µg/plate, without S9): 29.3 revertants/plate
O=C1C2CC3CC1CC(C(=O)N1CCN(c4ccc([N+](=O)[O-])c5ncccc45)CC1)(C3)C2 — revertant fold increase (Salmonella typhimurium; Ames test; TA100; 0.31 µg/well, without S9; relative to: vehicle): 0.7
Nc1nc2cc(C(=O)c3ccc(F)cc3)ccc2[nH]1 — revertants (Salmonella typhimurium; Ames preincubation test; TA100; 156.0 µg per plate, 3 days, without S9, lawn reduction): 97 revertants per plate
COC1CN([C@H]2CC[C@H]([C@@]3(C)Oc4c(Cl)cc(C(=O)NCc5c(SC)cc(C)[nH]c5=O)c(C)c4O3)CC2)C1 — log2 fold change (RNA-seq, refers to: MCF2L mouse homolog; mouse, HT-1376 xenograft, whole blood; dose not given; relative to: vehicle): 0.603

For quick reference, copied from above:
CCCCC(CSS(=O)(=O)O)NCC(C)C (stereo not shown) — body weight (Schistosoma mansoni; perfusion day 35; infected Swiss Webster mice; 100 mg/kg): 27.3 g and 25.5 g and 22.8 g
COC(=O)Nc1nc2cc(C(O)c3ccc(F)cc3)ccc2[nH]1 (stereo not shown) — revertants (Salmonella typhimurium; Ames preincubation test; TA98; 109.4 µg/plate, without S9): 29.3 revertants/plate
